# Measurements of several laboratories.
# A part holds a random share of what one study measured.

# Series 1 — technique: RNA Bind-n-Seq; molecule type: RNA; medium: in vitro; tested at: not given; relative to: input RNA pool; reading: higher = stronger binding
# Target: RING finger protein unkempt homolog, zinc fingers 1-6, GST-SBP tag (UNK, Homo sapiens, UniProt Q9C0B0, residues 30-357)
# Setting: RNA with constant flanks, human and mouse sites, ends assumed
# All sequences stand within: GGGAGUUCUACAGUCCGACGAUC … CAACAGAGGAUUGAGCAUCA
# Target sequence (chain): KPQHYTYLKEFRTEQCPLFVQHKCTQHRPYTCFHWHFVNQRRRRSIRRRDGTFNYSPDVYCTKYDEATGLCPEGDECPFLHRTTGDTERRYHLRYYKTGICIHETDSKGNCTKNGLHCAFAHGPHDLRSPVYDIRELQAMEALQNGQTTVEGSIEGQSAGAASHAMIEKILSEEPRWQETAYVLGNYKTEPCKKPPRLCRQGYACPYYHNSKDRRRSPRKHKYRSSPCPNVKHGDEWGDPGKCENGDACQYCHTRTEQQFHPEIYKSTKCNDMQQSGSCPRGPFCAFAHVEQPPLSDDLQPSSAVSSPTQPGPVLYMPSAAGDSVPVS
Sequence,bound/input enrichment
AUACAGUCUCAACAGAUCACCCCCCAGCUUGCGCUUCAAGUUCUACUUCAGUUUGAUAAAGCUAUAAAUUCAGCAUUGGCUCAGAGAGUCAGGAACAGAGUCAAUUUCAGGGGCUCUCUA,0.156 ratio
CACUCAAUCCUCCUCCUACUGAACCGGUUUCAUGUGGACAGGAGGAGCAAAUACGACAUCCUCAUGGAGAAGCUUUCGGUCAUGCUGAGCACACGGACUAACCACAUAGAGACGCUGGGA,0.333 ratio
UUUGCCUCCGUCCAGAAACAGGCUAGUGAGAAGAGGGCUCUCCGCAAAAAGAGGAAGGCCCUGGAGUUUGUAACUAAUCCCGAUAUUGCUGCCAAGAAGAAGUUGAAGAAACAUAAAAAU,0.185 ratio
CCGUAUGAAAUGUGUAGUAGUGGUUUAGUCCAGGCACUUCUUACUGUUCUAAACAAUAGUAUAGAUUUGGAUAUGAAGCAAGAUUGUAGUCAACUGGUAGAAAGAAUAAAUGUCUUCAAA,4.27 ratio
CGCUGCUAUGUGGACUUCACAGGGGCCCAGAGCCAUUGUCUGCAUGUGUCCGCCCAGAAGAUGCUGGACGGUGCCUCCUUCACCCUGUAUGAGUUCUGGCAGGAUGAGGCCUCCUGGAGA,0.0813 ratio
GGACAUCUGUCAAAUUGUUAUGUUCCUGUGAAACAAGUGAACACUCUGAUACACUUCAUCUGCUUGUACAUCUGUAUGAUAGAGAAAUGUAAAUAUGUUAAUCCAAGCAAUGUGUCACUU,0.235 ratio
GCAGCCUCCAGCCCUGGUUGCCCAGCAGCCCCCACCACCACCUCAGCAACAGCAGCAGCAGCAGCAGCAGCAACAGCAACAGCAGCAGCAACGGGAAGGUGCCAGCCUAGGGCAGGGUCC,0.165 ratio
AAAUGUUGUUUACCUUCUCAGAGUAGUGCUUUGGGGGUUCCUGGCGGCGUGUUGGAGGUCUAGCACAUACAGCUUCCCUUAACAGAAUAUUUUACGACAGUUUCAUACAGGGUUGCCUUA,0.294 ratio

# Series 2 — technique: protein-binding microarray; molecule type: double-stranded DNA, one strand shown; medium: in vitro; tested at: 250 nM; setting: 60-bp whole probe; added: salmon DNA 0.4 mg/ml; relative to: random background probes; reading: higher = stronger binding; all sequences stand within: GCCTAGCAC … GTCTTGATTCGCTTGACGCTGCTG
# Target: Interferon regulatory factor 5, full length, phosphomimetic (IRF5, Homo sapiens, UniProt Q13568-2, residues 1-514, K96S/S451D/S453D/S456D/S462D)
Sequence,log fluorescence
GACGAATTGAGTATCGAGACGTGCTAG,2.05 z-score
TCAGCTTTATGTGTAGGACTGTGCTAG,-0.0412 z-score
GGCGGACTGGGGACTGGGGACGTGCTA,-0.636 z-score
GTCGGTATCGACTATCGGGACGTGCTA,4.93 z-score
TTAGGTCTTCTTCTCCTTTAGTGCTAG,0.271 z-score
CGTTTTTCATTTTTTTTTTCGTGCTAG,2.52 z-score
TCAAGTTTACCCATCTCACTGTGCTAG,0.265 z-score
GACCGTATCCTTATCCTGACGTGCTAG,-0.122 z-score

# Series 3 — technique: protein-binding microarray; molecule type: double-stranded DNA, one strand shown; medium: in vitro; tested at: 0.8 µM; setting: whole 60-bp probe, no competitor; reading: higher = stronger binding; all sequences stand within: … GTCTTGATTCGCTTGACGCTGCTG
# Target: Centromere-binding protein 1, full length, N-terminal tag (CBF1, Saccharomyces cerevisiae, UniProt P17106, residues 1-351)
# Chain of UniProt P17106 (whole entry, looked up): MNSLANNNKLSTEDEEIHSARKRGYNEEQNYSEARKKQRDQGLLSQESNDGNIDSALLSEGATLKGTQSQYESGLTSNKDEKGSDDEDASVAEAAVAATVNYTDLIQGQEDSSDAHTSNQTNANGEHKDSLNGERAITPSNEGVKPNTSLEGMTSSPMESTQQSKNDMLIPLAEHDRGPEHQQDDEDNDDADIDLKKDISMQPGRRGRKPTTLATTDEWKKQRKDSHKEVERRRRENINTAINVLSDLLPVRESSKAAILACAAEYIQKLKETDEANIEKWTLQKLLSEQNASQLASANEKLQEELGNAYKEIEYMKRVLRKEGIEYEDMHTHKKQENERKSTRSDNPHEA
Sequence,fluorescence intensity
GAAAAAGGTAGTATTCACGTGTGGCTTCAAGAATAG,1660 a.u.
GAACCTCAAAAGGCACTCACCTGTTGACATGCCTAG,524 a.u.
TGTACGAAGCTATTGACTATTTTTATAGTAGTTAGG,523 a.u.
CTAAAGTCTGCAGCTCACGTTTTAGAATAACAATTC,719 a.u.
GAAAACTACCCTGACGTCATCAGCGAAATTCGTTAG,479 a.u.
GAAGGCCTCGTGGCGCACATGGTACGCTGTGGTTAG,731 a.u.
GAACGGCTGCAGTATTCCATGTGATATCTACCGTAG,936 a.u.
GAAAACAACTTTTATCATCAGATTGTGATACGATAG,529 a.u.
GAACATTTTTGAAGTCATATGATTTTTCATGCCTAG,1450 a.u.
TGTACGAAGCTATGGTGACTGAGTATAGTAGTTAGG,534 a.u.
CTATTTTCTTTTCACCTGCTCTGGCTATAATTATTC,697 a.u.
CTATGGATTGATTTTCACATGTATCGTTTATGATTC,665 a.u.
CTATAAAGGGACCAAAACGTGGGGAAGGGATGCTTC,510 a.u.

# Other studies, line by line
Substance,target,test,test system,conditions,scale,endpoint,value
"PhoQ, residues 284 288 289 292 302 303 AEGLLW","PhoP, residues 12 14 15 18 19 LHATL (Escherichia coli, UniProt P23836)","Sort-seq, refers to: YFP reporter",E. coli,"PhoQ-PhoP variant library, added: 10 µM Mg2+","relative to: high Mg2+ state, higher = stronger signaling",fold induction,8.72

# Excerpt of the above (series 1):
Sequence,bound/input enrichment
AUACAGUCUCAACAGAUCACCCCCCAGCUUGCGCUUCAAGUUCUACUUCAGUUUGAUAAAGCUAUAAAUUCAGCAUUGGCUCAGAGAGUCAGGAACAGAGUCAAUUUCAGGGGCUCUCUA,0.156 ratio
CCGUAUGAAAUGUGUAGUAGUGGUUUAGUCCAGGCACUUCUUACUGUUCUAAACAAUAGUAUAGAUUUGGAUAUGAAGCAAGAUUGUAGUCAACUGGUAGAAAGAAUAAAUGUCUUCAAA,4.27 ratio
